Measurements of several laboratories.
A part holds a random share of what one study measured.
Chain of UniProt Q9P286 (whole entry, looked up): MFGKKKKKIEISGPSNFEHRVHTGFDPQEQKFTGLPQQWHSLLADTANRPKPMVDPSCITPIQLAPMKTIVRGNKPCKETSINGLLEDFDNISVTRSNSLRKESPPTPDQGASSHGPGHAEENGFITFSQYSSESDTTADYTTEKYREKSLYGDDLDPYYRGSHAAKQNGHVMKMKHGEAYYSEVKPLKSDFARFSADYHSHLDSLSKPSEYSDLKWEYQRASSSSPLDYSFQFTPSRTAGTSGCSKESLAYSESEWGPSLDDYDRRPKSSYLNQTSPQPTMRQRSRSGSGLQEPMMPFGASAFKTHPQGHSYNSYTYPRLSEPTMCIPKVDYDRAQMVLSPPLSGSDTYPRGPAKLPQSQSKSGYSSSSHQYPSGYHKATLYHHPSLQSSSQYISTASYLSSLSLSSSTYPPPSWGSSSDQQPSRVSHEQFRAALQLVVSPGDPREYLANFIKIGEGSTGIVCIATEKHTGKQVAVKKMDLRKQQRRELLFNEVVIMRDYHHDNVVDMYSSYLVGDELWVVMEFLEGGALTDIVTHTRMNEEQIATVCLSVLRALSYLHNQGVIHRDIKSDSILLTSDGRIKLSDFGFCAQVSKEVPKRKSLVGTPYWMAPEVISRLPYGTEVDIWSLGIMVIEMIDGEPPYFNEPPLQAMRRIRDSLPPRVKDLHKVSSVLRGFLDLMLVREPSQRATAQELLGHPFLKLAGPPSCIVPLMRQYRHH
Chain of UniProt P08631 (whole entry, looked up): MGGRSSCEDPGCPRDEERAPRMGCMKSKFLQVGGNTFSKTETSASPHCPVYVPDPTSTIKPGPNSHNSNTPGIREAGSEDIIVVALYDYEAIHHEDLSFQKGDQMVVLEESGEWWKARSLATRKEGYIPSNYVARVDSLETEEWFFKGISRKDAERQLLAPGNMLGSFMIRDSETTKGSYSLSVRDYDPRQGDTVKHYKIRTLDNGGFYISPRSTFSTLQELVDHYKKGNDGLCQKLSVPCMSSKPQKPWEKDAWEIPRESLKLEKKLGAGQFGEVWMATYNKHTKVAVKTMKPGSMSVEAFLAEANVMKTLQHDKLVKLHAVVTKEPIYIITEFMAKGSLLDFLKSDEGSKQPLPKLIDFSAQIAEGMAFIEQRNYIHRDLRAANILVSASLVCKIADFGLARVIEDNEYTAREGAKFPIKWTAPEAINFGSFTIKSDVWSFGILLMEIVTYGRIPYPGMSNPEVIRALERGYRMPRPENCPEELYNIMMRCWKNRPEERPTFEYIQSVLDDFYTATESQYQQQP
Chain of UniProt Q9UKE5 (whole entry, looked up): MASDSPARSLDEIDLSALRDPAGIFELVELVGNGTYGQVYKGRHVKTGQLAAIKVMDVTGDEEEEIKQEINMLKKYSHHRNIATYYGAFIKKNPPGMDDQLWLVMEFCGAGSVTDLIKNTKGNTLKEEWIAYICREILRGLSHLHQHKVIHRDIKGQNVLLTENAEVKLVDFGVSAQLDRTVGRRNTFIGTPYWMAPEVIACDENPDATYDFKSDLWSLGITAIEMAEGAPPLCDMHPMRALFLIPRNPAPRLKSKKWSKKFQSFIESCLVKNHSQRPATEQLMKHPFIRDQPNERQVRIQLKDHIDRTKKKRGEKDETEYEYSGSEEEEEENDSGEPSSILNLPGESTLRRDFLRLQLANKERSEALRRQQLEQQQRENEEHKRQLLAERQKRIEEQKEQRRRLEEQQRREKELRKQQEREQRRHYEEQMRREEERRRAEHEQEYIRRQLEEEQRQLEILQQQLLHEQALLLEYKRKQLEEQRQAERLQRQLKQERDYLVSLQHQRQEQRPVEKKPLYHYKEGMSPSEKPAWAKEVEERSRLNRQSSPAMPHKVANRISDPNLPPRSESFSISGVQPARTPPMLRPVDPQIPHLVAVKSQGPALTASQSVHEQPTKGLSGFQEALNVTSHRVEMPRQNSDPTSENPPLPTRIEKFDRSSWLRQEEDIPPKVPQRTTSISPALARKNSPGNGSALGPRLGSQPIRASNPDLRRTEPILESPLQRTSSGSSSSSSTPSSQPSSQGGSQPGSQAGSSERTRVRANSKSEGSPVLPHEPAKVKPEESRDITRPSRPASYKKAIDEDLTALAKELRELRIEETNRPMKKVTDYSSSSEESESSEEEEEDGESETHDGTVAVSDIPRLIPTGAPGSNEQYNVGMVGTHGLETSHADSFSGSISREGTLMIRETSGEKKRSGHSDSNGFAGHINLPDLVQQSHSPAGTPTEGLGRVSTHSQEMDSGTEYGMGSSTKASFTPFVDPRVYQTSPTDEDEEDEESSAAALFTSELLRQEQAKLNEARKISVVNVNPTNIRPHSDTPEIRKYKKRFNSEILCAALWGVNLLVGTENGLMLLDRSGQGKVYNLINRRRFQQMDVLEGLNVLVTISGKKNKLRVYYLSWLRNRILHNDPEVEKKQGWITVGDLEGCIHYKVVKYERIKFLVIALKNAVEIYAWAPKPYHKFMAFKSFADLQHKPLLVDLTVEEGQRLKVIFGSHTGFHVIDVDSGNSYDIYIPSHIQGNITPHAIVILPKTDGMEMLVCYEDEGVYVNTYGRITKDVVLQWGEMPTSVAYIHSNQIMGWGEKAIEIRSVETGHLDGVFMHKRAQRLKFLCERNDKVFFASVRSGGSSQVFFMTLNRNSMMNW
Chain of UniProt P11309 (whole entry, looked up): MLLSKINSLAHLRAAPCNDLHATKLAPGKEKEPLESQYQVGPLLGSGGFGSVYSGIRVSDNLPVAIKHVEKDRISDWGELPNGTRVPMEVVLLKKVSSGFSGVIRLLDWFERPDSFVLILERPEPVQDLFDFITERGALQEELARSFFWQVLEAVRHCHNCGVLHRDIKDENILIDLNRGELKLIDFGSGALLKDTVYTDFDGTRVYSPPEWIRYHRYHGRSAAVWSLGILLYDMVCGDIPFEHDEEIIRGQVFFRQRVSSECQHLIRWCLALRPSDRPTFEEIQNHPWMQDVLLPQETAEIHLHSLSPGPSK
Chain of UniProt Q5TCX8 (whole entry, looked up): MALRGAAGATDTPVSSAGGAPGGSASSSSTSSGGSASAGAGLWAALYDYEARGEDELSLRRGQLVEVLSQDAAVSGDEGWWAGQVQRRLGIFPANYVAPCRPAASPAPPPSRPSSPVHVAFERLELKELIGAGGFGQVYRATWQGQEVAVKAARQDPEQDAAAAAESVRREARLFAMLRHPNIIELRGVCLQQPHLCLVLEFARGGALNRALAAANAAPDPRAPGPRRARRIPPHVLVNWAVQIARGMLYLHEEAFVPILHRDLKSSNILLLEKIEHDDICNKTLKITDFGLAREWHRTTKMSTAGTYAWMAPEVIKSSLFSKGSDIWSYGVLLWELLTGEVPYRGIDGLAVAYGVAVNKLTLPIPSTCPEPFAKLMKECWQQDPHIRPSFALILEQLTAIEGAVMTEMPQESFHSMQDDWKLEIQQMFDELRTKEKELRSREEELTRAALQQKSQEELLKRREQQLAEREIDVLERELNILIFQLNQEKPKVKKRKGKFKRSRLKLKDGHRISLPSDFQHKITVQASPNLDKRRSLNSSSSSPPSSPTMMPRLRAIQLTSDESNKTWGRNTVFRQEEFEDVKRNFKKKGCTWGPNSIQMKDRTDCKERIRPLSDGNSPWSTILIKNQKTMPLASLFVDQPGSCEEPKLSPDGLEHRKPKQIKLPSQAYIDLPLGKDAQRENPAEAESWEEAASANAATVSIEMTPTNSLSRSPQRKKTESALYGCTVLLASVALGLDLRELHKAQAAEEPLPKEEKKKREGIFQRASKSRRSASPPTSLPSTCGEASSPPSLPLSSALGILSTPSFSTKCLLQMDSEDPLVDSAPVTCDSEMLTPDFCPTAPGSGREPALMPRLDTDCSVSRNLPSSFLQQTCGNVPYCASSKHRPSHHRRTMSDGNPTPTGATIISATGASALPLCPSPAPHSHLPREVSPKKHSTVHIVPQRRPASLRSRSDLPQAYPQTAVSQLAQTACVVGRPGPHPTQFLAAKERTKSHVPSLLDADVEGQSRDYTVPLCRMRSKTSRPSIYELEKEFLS

Set 1
Method: PRP chromatography estimate
Medium: 1,9-decadiene/PBS
pH: 7.4
| Compound | logD |
| --- | --- |
| CC(C)C[C@@H]1NC(=O)[C@H](CC(C)C)NC(=O)[C@@H](CC(C)C)NC(=O)[C@H](CC(C)C)NC(=O)[C@@H](Cc2cscn2)NC(=O)[C@@H](CC(C)C)NC(=O)[C@H](C)NC1=O | 0.285 |
| CC(C)C[C@@H]1NC(=O)[C@H](CC(C)C)NC(=O)[C@H](CC(C)C)NC(=O)[C@H](CC(C)C)NC(=O)[C@@H](Cc2cscn2)NC(=O)[C@H](CCC(=O)N2CCCC2)NC(=O)[C@H](C)NC1=O | -1.8 |
| CC(C)C[C@@H]1NC(=O)[C@H](CC(C)C)NC(=O)[C@H](CC(C)C)NC(=O)[C@H](C(C)C)NC(=O)[C@H](C)NC(=O)[C@@H](CC(C)C)NC(=O)[C@H](C)NC1=O | -0.717 |
| CC(C)C[C@@H]1NC(=O)[C@H](Cc2cscn2)NC(=O)[C@H](C)NC(=O)[C@H](C)NC(=O)[C@@H](CCC(=O)N2CCCC2)NC(=O)[C@H](CC(C)C)NC(=O)[C@@H](CC(C)C)NC1=O | -2.8 |
| CC(C)C[C@@H]1NC(=O)[C@H](CC(C)C)NC(=O)[C@@H](CC(C)C)NC(=O)[C@H](Cc2cscn2)NC(=O)[C@@H](CCC(=O)N2CCCC2)NC(=O)[C@H](Cc2cscn2)NC(=O)[C@H](C)NC1=O | -2.87 |
| CC(C)C[C@@H]1NC(=O)[C@H](C)NC(=O)[C@H](Cc2cscn2)NC(=O)[C@@H](CC(C)C)NC(=O)[C@H](C(C)C)NC(=O)[C@H](CC(C)C)NC(=O)[C@@H](CC(C)C)NC1=O | -0.332 |
| CC(C)C[C@@H]1NC(=O)[C@H](CC(C)C)NC(=O)[C@@H](C(C)C)NC(=O)[C@H](CC(C)C)NC(=O)[C@@H](Cc2cscn2)NC(=O)[C@H](CCC(=O)N2CCCC2)NC(=O)[C@H](C)NC1=O | -2.26 |
| CC(C)C[C@@H]1NC(=O)[C@H](Cc2cscn2)NC(=O)[C@H](Cc2cscn2)NC(=O)[C@H](CCC(=O)N2CCCC2)NC(=O)[C@@H](CCC(=O)N2CCCC2)NC(=O)[C@H](CC(C)C)NC(=O)[C@@H](CC(C)C)NC1=O | -2.26 |

Set 2
SMILES: O=C(Nc1cnn(-c2csc(C(=O)NC3COC3)c2)c1)Nc1ccccc1Cl
Effect on: enzyme activity
Concentration: 5 µM
| target | assay | scale | remaining activity |
| --- | --- | --- | --- |
| Tyrosine-protein kinase receptor TYRO3 (TYRO3, Homo sapiens, UniProt Q06418) | – | reference: untreated control | 75.4% |
| Casein kinase I isoform gamma-2 (CSNK1G2, Homo sapiens, UniProt P78368) | – | reference: untreated control | 94.2% |
| Kinase suppressor of Ras 1 (KSR1, Homo sapiens, UniProt Q8IVT5) | inhibitor | – | 101% |
| Calcium/calmodulin-dependent protein kinase type 1 (CAMK1, Homo sapiens, UniProt Q14012) | – | reference: untreated control | 85.4% |
| Ribosomal protein S6 kinase beta-2 (RPS6KB2, Homo sapiens, UniProt Q9UBS0) | inhibitor | – | 94.2% |
| Tyrosine-protein kinase Yes (YES1, Homo sapiens, UniProt P07947) | – | reference: untreated control | 91.5% |
| Serine/threonine-protein kinase PAK 5 (PAK5, Homo sapiens, UniProt Q9P286) | – | reference: untreated control | 90.7% |
| Protein kinase C gamma type (PRKCG, Homo sapiens, UniProt P05129) | – | reference: untreated control | 97.2% |
| Mitogen-activated protein kinase kinase kinase 21 (MAP3K21, Homo sapiens, UniProt Q5TCX8) | inhibitor | – | 93.2% |
| Serine/threonine-protein kinase Nek11 (NEK11, Homo sapiens, UniProt Q8NG66) | – | reference: untreated control | 136% |

Set 3
SMILES: O=c1nc(-c2ccccn2)sc2ccccc12
Method: competition with immobilised ligand
Concentration: 1 µM
| target | assay | remaining binding [%] |
| --- | --- | --- |
| Casein kinase I isoform alpha-like (CSNK1A1L, Homo sapiens, UniProt Q8N752) | cell-free assay | 100 |
| Tyrosine-protein kinase TXK (TXK, Homo sapiens, UniProt P42681) | binding | 81 |
| Casein kinase I isoform delta (CSNK1D, Homo sapiens, UniProt P48730) | cell-free assay | 81 |
| Phosphatidylinositol 5-phosphate 4-kinase type-2 gamma (PIP4K2C, Homo sapiens, UniProt Q8TBX8) | binding | 98 |
| Fibroblast growth factor receptor 1 (FGFR1, Homo sapiens, UniProt P11362) | cell-free assay | 100 |
| Mitogen-activated protein kinase kinase kinase 9 (MAP3K9, Homo sapiens, UniProt P80192) | binding | 85 |
| Cyclin-dependent kinase 14 (CDK14, Homo sapiens, UniProt O94921) | binding | 100 |
| Serine/threonine-protein kinase WNK1 (WNK1, Homo sapiens, UniProt Q9H4A3) | binding | 100 |
| Testis-specific serine/threonine-protein kinase 1 (TSSK1B, Homo sapiens, UniProt Q9BXA7) | binding | 100 |
| Hepatocyte growth factor receptor (MET, Homo sapiens, UniProt P08581, M1250T) | cell-free assay | 98 |
| Serine/threonine-protein kinase pim-1 (PIM1, Homo sapiens, UniProt P11309) | binding | 85 |
| Tyrosine-protein kinase receptor UFO (AXL, Homo sapiens, UniProt P30530) | binding | 100 |
| TRAF2 and NCK-interacting protein kinase (TNIK, Homo sapiens, UniProt Q9UKE5) | binding | 83 |
| Epidermal growth factor receptor (EGFR, Homo sapiens, UniProt P00533, L858R) | cell-free assay | 81 |
| Serine/threonine-protein kinase PLK2 (PLK2, Homo sapiens, UniProt Q9NYY3) | binding | 95 |
| Bone morphogenetic protein receptor type-2 (BMPR2, Homo sapiens, UniProt Q13873) | cell-free assay | 100 |
| Serine/threonine-protein kinase 38 (STK38, Homo sapiens, UniProt Q15208) | binding | 76 |
| Serine/threonine-protein kinase SBK1 (SBK1, Homo sapiens, UniProt Q52WX2) | binding | 100 |
| Serine/threonine-protein kinase MARK2 (MARK2, Homo sapiens, UniProt Q7KZI7) | binding | 78 |
| Dual specificity tyrosine-phosphorylation-regulated kinase 1B (DYRK1B, Homo sapiens, UniProt Q9Y463) | cell-free assay | 100 |
| 3-phosphoinositide-dependent protein kinase 1 (PDPK1, Homo sapiens, UniProt O15530) | binding | 100 |
| Dual specificity mitogen-activated protein kinase kinase 5 (MAP2K5, Homo sapiens, UniProt Q13163) | binding | 79 |
| Serine/threonine-protein kinase/endoribonuclease IRE1 (ERN1, Homo sapiens, UniProt O75460) | cell-free assay | 100 |
| Tyrosine-protein kinase HCK (HCK, Homo sapiens, UniProt P08631) | cell-free assay | 94 |
| RAF proto-oncogene serine/threonine-protein kinase (RAF1, Homo sapiens, UniProt P04049) | binding | 100 |

Set 4
Target: Calcium/calmodulin-dependent protein kinase type II subunit alpha (CAMK2A, Homo sapiens, UniProt Q9UQM7)
Chain of UniProt Q9UQM7 (whole entry, looked up): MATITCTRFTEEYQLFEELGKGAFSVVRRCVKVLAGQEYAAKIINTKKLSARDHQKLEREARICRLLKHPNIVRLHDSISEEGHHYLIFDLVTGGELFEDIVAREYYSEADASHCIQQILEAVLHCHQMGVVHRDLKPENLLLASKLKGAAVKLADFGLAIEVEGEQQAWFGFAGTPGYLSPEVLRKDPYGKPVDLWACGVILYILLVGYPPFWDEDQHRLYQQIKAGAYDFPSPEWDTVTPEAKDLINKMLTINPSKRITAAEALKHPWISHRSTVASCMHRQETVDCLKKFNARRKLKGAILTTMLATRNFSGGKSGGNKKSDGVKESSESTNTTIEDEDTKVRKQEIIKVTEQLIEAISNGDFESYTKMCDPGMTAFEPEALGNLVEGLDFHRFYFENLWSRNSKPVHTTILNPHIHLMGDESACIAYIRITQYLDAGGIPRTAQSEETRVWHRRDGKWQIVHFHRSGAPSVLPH
Effect on: enzyme activity
Mode: inhibitor
Concentration: 10 µM
| SMILES | inhibition |
| --- | --- |
| CC(=O)N[C@@H](CC(C)C)C(=O)O | -19% |
| COc1cc(-c2oc3cc(O)cc(O)c3c(=O)c2O)ccc1O | 66% |
| N#Cc1ccc2[nH]cc(CCCCN3CCN(c4ccc5oc(C(=O)O)cc5c4)CC3)c2c1 | 2% |
| CC1(C)CC[C@]2(C(=O)O)[C@H](O)C[C@]3(C)C(=CC[C@@H]4[C@@]5(C)CC[C@H](O)C(C)(C)[C@@H]5CC[C@]43C)[C@@H]2C1 | -12% |
| C[C@H](CCC(=O)O)[C@H]1CC[C@H]2[C@@H]3CC[C@@H]4C[C@H](O)CC[C@]4(C)[C@H]3CC(=O)[C@]12C | -10% |
| NC(Cc1ccc(O)c(O)c1)C(=O)O (racemic) | -5% |
| COc1cc(OC)cc(OC)c1 | 4% |
| Cc1ccc(/C(=C\CN2CCCC2)c2ccccn2)cc1 | -4% |

Set 5
Host: mouse
Medium: microsomes or S9
Concentration: 2 µM
Time: 0.5 h
| Compound | remaining compound [%] |
| --- | --- |
| CCn1nc(C)c2ncnc(NC3CCCCCC3)c21 | 0.5 |
| Cc1ccc(OCCN2CCOCC2)c(NC(=O)c2cc3cc(C)ccc3n2C)c1 | 0.258 |
| OCCOCCN1CCN(c2nc(Cl)cc(Nc3ccc4[nH]ncc4c3)n2)CC1 | 7.15 |
| Cc1cc(Cl)nc(NCCCc2nc(C(C)C)no2)n1 | 0.282 |
| COc1cc(Br)c(S(=O)(=O)NC2CCN(S(=O)(=O)CCN3CCCCC3)CC2)cc1OC | 0.059 |
| Cc1n[nH]cc1CNC1(Cc2ccc(Br)cc2)CCCCC1 | 59.9 |

Excerpt of the above (set 1):
| Compound | logD |
| --- | --- |
| CC(C)C[C@@H]1NC(=O)[C@H](CC(C)C)NC(=O)[C@H](CC(C)C)NC(=O)[C@H](C(C)C)NC(=O)[C@H](C)NC(=O)[C@@H](CC(C)C)NC(=O)[C@H](C)NC1=O | -0.717 |
| CC(C)C[C@@H]1NC(=O)[C@H](Cc2cscn2)NC(=O)[C@H](C)NC(=O)[C@H](C)NC(=O)[C@@H](CCC(=O)N2CCCC2)NC(=O)[C@H](CC(C)C)NC(=O)[C@@H](CC(C)C)NC1=O | -2.8 |
| CC(C)C[C@@H]1NC(=O)[C@H](CC(C)C)NC(=O)[C@@H](CC(C)C)NC(=O)[C@H](Cc2cscn2)NC(=O)[C@@H](CCC(=O)N2CCCC2)NC(=O)[C@H](Cc2cscn2)NC(=O)[C@H](C)NC1=O | -2.87 |
| CC(C)C[C@@H]1NC(=O)[C@H](C)NC(=O)[C@H](Cc2cscn2)NC(=O)[C@@H](CC(C)C)NC(=O)[C@H](C(C)C)NC(=O)[C@H](CC(C)C)NC(=O)[C@@H](CC(C)C)NC1=O | -0.332 |
| CC(C)C[C@@H]1NC(=O)[C@H](CC(C)C)NC(=O)[C@@H](C(C)C)NC(=O)[C@H](CC(C)C)NC(=O)[C@@H](Cc2cscn2)NC(=O)[C@H](CCC(=O)N2CCCC2)NC(=O)[C@H](C)NC1=O | -2.26 |
